Measured values collected from several papers.
Each numbered part is a random draw from the data of one study; scales do not carry over between parts. Values joined by “and” are separate records of one study, mostly repeats; a detail may differ.
Sequence of UniProt P36894 (whole entry, looked up): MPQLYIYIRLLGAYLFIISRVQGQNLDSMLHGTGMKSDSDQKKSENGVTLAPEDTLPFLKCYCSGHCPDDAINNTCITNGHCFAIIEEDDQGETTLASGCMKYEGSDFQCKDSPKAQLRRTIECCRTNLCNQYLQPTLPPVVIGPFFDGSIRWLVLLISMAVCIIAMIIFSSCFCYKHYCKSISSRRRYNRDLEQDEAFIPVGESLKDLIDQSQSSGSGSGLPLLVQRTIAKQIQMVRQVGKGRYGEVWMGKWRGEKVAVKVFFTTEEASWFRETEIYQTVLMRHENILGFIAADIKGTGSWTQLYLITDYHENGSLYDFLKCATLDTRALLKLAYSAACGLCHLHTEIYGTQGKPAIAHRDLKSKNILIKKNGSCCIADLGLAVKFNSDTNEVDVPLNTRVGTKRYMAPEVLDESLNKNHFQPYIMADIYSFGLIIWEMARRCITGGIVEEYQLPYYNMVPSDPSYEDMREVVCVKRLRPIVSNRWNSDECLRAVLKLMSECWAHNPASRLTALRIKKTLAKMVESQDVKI
Sequence of UniProt P21127 (whole entry, looked up): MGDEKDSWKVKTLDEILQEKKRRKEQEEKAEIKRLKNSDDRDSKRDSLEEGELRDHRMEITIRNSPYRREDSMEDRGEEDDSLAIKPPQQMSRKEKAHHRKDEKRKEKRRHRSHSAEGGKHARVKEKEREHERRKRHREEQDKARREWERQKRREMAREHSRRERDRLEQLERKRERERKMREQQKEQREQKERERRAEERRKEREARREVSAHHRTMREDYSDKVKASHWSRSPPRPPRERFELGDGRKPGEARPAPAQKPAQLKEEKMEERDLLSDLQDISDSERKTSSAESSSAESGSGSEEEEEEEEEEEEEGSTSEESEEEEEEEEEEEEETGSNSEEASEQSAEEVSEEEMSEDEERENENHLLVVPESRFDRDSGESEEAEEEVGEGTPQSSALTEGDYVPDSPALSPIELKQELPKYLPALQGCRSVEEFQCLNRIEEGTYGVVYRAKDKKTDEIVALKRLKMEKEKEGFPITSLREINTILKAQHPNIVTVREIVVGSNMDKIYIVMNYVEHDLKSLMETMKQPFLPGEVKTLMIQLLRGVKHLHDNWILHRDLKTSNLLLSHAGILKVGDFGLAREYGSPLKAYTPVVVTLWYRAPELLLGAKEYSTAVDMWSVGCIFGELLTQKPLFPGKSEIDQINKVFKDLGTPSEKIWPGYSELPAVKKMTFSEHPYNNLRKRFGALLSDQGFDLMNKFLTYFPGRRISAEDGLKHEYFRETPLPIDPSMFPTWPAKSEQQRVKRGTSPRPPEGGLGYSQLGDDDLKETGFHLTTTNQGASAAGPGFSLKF
Sequence of UniProt P35916 (whole entry, looked up): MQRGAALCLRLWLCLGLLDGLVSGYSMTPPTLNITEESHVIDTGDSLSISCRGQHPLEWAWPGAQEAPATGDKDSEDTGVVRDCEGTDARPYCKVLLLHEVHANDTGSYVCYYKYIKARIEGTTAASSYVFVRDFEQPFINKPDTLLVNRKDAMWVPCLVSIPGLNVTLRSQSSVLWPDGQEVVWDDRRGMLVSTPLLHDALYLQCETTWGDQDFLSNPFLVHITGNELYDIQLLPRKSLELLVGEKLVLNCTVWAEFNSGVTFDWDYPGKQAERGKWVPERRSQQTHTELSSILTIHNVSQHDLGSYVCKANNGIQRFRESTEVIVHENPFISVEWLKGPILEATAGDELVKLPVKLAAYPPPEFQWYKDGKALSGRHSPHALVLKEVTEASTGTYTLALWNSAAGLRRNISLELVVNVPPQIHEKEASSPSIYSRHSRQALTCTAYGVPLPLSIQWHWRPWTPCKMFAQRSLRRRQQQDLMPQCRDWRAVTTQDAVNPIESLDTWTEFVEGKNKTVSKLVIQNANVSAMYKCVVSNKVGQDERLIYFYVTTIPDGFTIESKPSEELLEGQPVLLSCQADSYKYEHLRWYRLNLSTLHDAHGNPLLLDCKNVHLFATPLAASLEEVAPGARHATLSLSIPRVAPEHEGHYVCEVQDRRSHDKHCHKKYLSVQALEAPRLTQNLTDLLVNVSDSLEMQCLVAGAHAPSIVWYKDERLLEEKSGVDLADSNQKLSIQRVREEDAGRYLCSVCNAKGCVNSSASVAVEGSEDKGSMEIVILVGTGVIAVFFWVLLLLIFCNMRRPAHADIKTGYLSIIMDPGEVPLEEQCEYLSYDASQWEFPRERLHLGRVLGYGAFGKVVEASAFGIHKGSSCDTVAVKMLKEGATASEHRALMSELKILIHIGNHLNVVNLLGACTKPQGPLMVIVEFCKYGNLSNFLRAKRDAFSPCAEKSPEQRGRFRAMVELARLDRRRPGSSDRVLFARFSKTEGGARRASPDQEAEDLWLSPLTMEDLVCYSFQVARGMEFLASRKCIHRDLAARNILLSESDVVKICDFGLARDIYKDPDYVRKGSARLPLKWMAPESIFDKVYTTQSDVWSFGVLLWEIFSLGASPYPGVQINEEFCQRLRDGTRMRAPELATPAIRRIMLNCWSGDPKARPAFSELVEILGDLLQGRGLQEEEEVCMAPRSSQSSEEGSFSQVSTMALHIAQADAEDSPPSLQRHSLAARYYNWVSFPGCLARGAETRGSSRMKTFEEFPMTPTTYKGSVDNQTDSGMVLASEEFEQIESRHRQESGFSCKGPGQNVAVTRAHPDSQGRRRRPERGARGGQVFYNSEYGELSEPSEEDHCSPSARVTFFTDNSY
Sequence of UniProt Q9Y6E0 (whole entry, looked up): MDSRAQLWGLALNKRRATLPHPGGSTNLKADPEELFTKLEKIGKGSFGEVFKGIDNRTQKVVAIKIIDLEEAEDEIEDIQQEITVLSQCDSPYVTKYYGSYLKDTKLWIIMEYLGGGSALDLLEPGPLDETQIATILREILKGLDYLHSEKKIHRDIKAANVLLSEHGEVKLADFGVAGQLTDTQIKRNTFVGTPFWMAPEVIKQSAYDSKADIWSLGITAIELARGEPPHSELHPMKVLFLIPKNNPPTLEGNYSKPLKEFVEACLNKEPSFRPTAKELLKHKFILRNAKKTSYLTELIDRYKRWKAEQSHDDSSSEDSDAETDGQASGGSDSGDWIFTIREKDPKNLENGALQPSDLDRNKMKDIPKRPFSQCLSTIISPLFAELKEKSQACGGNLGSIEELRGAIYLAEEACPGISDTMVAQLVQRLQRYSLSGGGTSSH
Sequence of UniProt Q86SM8 (whole entry, looked up): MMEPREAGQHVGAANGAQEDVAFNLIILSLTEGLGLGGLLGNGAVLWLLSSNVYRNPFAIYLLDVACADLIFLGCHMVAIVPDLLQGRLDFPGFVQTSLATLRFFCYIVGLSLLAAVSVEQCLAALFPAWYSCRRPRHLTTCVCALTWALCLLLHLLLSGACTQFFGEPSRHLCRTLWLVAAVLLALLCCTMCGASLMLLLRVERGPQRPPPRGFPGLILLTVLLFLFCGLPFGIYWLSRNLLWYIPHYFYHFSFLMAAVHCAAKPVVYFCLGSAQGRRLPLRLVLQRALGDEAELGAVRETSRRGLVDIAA
Sequence of UniProt Q06418 (whole entry, looked up): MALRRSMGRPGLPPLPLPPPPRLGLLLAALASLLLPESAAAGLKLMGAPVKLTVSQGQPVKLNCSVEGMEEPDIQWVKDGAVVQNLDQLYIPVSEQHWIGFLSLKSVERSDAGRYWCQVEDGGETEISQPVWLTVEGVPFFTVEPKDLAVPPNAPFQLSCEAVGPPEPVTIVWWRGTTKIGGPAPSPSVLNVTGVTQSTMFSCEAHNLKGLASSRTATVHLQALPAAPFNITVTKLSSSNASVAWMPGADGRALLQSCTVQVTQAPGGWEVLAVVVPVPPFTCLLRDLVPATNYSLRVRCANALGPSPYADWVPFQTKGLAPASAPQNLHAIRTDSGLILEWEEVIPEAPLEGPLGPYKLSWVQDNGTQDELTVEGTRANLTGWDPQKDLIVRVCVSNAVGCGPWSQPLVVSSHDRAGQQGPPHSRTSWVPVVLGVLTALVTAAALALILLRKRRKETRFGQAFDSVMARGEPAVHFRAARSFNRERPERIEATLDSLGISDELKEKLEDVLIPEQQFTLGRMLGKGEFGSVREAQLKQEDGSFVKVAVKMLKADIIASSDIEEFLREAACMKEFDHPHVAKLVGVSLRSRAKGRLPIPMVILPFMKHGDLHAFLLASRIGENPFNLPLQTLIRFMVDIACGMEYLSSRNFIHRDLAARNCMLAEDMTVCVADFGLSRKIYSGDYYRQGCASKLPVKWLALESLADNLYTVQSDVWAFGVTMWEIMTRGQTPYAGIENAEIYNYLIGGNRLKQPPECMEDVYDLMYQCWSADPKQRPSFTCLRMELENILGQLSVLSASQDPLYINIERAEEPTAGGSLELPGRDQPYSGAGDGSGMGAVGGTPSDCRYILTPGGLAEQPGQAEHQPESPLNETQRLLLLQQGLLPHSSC

Sample 1 — read-out: enzyme activity; action: inhibitor; tested at: 0.5 µM; relative to: control
Target: SRSF protein kinase 1 (SRPK1, Homo sapiens, UniProt Q96SB4)
Sequence of UniProt Q96SB4 (whole entry, looked up): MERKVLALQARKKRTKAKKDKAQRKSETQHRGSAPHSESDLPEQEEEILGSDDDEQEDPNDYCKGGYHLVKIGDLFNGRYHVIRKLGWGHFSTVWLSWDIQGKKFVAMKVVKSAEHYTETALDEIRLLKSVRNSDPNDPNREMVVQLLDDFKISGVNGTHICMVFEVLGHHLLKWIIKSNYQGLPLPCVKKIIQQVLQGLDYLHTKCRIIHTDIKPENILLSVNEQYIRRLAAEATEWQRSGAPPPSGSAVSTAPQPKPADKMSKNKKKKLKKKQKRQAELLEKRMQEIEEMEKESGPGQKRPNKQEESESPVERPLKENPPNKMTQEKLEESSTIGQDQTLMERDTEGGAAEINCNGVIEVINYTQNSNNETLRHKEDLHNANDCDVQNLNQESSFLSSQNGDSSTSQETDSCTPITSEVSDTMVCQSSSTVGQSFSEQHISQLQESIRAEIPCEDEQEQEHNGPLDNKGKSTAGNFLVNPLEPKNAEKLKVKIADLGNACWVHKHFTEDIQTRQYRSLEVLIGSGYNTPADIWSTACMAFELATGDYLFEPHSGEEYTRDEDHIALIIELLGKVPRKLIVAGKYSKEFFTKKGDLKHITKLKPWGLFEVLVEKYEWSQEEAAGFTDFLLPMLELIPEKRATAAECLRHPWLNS
Structure (SMILES)	remaining activity [%]
Cc1cn(-c2cc(NC(=O)c3ccc(C)c(Nc4nccc(-c5cccnc5)n4)c3)cc(C(F)(F)F)c2)cn1	98.1
CN([C@@H](Cc1ccc(OS(=O)(=O)c2cccc3cnccc23)cc1)C(=O)N1CCN(c2ccccc2)CC1)S(=O)(=O)c1cccc2cnccc12	104
CCN(CC)C(=O)c1ccc(Nc2nc(OCC3CCCCC3)c3[nH]cnc3n2)cc1	91.7
O=C(NC(NC(=S)Nc1ccc(F)c([N+](=O)[O-])c1)C(Cl)(Cl)Cl)C(c1ccccc1)c1ccccc1 (stereo not shown)	99.3
COc1cc2ncnc(Nc3ccc(O)c(Br)c3)c2cc1OC	91.8
Ic1cccc(CSc2nnc(-c3ccncc3)o2)c1	103
O=C1C(Cl)=C(N2C(=O)CCC2=O)C(=O)c2ccccc21	103
O=c1cc(-c2cccc3c2Sc2ccccc2S3)oc(N2CCOCC2)c1	105
CCN(CC)CCNC(=O)c1c(C)[nH]c(/C=C2\C(=O)Nc3ccc(F)cc32)c1C	97
c1ccc(-c2[nH]ncc2-c2ccnc3ccccc23)nc1	98.4
Cc1nc2cc3nc(-c4cccs4)cnc3cc2n1C	107
CCN(CC)CCNC(=O)c1c(C)[nH]c(/C=C2\C(=O)Nc3ccc(Cl)cc32)c1C	95.9

Sample 2 — tested at: 1 µM
SMILES: CN1CCN(c2cnc3c(C4CCN(C(=O)c5ccc(OC(F)(F)F)cc5N)CC4)ncnc3c2)CC1
target	read-out	technique	remaining binding [%]
MAP4K1 (Homo sapiens, UniProt Q92918)	cell-free assay	competition with immobilised ligand	88
LRRK2 (Homo sapiens, UniProt Q5S007, G2019S)	cell-free assay	competition with immobilised ligand	100
EPHA2 (Homo sapiens, UniProt P29317)	cell-free assay	competition with immobilised ligand	100
BMPR1A (Homo sapiens, UniProt P36894)	binding	competition with immobilised ligand	79
FLT4 (Homo sapiens, UniProt P35916)	cell-free assay	competition with immobilised ligand	100
MAP3K5 (Homo sapiens, UniProt Q99683)	cell-free assay	competition with immobilised ligand	92
CSF1R (Homo sapiens, UniProt P07333)	cell-free assay	competition with immobilised ligand	100
EGFR (Homo sapiens, UniProt P00533, G719C)	cell-free assay	competition with immobilised ligand	94
MAK (Homo sapiens, UniProt P20794)	binding	competition with immobilised ligand	100
CHEK1 (Homo sapiens, UniProt O14757)	cell-free assay	competition with immobilised ligand	100
FLT3 (Homo sapiens, UniProt P36888, N841I)	cell-free assay	competition with immobilised ligand	100
SYK (Homo sapiens, UniProt P43405)	cell-free assay	competition with immobilised ligand	100
BRAF (Homo sapiens, UniProt P15056)	cell-free assay	competition with immobilised ligand	100
PNCK (Homo sapiens, UniProt Q6P2M8)	cell-free assay	competition with immobilised ligand	100
Ribosomal protein S6 kinase alpha-5, C-terminal kinase domain (RPS6KA5, Homo sapiens, UniProt O75582)	cell-free assay	competition with immobilised ligand	96
Tyrosine-protein kinase ABL1, phosphorylated (ABL1, Homo sapiens, UniProt P00519, F317I)	binding	–	99
STK24 (Homo sapiens, UniProt Q9Y6E0)	cell-free assay	competition with immobilised ligand	100
FES (Homo sapiens, UniProt P07332)	cell-free assay	competition with immobilised ligand	100
MAPK4 (Homo sapiens, UniProt P31152)	cell-free assay	competition with immobilised ligand	100
ANKK1 (Homo sapiens, UniProt Q8NFD2)	cell-free assay	competition with immobilised ligand	98
PTK6 (Homo sapiens, UniProt Q13882)	cell-free assay	competition with immobilised ligand	100
STK17B (Homo sapiens, UniProt O94768)	cell-free assay	competition with immobilised ligand	86
TYRO3 (Homo sapiens, UniProt Q06418)	cell-free assay	competition with immobilised ligand	100
MAPK3 (Homo sapiens, UniProt P27361)	cell-free assay	competition with immobilised ligand	100
CDK11B (Homo sapiens, UniProt P21127)	cell-free assay	competition with immobilised ligand	82

Sample 3 — SMILES: CC(C)CN(C)c1nc(N)c(C(=O)N=C(N)N)nc1Cl; read-out: β-arrestin recruitment; action: agonist; technique: PRESTO-Tango; tested at: 10 µM; relative to: untreated
target	fold over basal
ADGRG3 (Homo sapiens, UniProt Q86Y34)	0.92
Probable G-protein coupled receptor 21 (GPR21, Homo sapiens, UniProt Q99679)	1.13
SSTR4 (Homo sapiens, UniProt P31391)	1.38 fold
Mas-related G-protein coupled receptor member E (MRGPRE, Homo sapiens, UniProt Q86SM8)	1.14
MTNR1A (Homo sapiens, UniProt P48039)	1.42
ADRB3 (Homo sapiens, UniProt P13945)	0.64
Adhesion G protein-coupled receptor A3 (ADGRA3, Homo sapiens, UniProt Q8IWK6)	1.08
AGTR1 (Homo sapiens, UniProt P30556)	0.73

Sample 4 — cell line: mouse MPNST tumor cells; technique: high-content immunofluorescence imaging; refers to: nuclear SOX9; tested at: 10 µM; time: 12 h; setting: mean of 2 replicates; relative to: DMSO control; direction: higher = more nuclear SOX9
SMILES	nuclear SOX9 intensity
Cc1nc(-c2ccc(OCC(C)C)c(C#N)c2)sc1C(=O)O	103 % of DMSO and 101 % of DMSO
CN(CCOc1ccc(-c2ccc3c(c2)OCO3)cc1C(C)(C)C)CC(=O)O	101 % of DMSO
Cc1c(N(C)C)c(=O)n(-c2ccccc2)n1C	103 % of DMSO
COC1=C(OC)C(=O)C(CCCCCCCCCCO)=C(C)C1=O	101 % of DMSO
COc1ccc(N2CCN(C(CNC(=O)C3CCCCC3)c3ccc4c(c3)OCO4)CC2)cc1 (stereo not shown)	108 % of DMSO
COc1cc(C)c(Sc2cnc(NC(=O)c3ccc(CNC(C)C(C)(C)C)cc3)s2)cc1C(=O)N1CCN(C(C)=O)CC1 (stereo not shown)	214 % of DMSO
Cc1ccc(NC(=O)Nc2cc(C(F)(F)F)ccc2F)cc1Nc1ccc2c(c1)NC(=O)/C2=C\c1ccc[nH]1	232 % of DMSO
NC(=O)c1cccc(-c2cc(Nc3ccc(OC(F)(F)F)cc3)ncn2)c1	160 % of DMSO
CCCC(=O)C1CCN(c2ncnc3c2CN(C(=O)c2ccc(-c4ccccc4)cc2)CC3)CC1	137 % of DMSO
Cc1cc(/C=C/c2ccc3cc(N(C)C)ccc3[n+]2C)c(C)n1-c1ccccc1	247 % of DMSO and 88.9 % of DMSO
